Measured values of several laboratories.
Protocols differ between the studies behind these lines. “And” joins repeats or separate records; there may be more than shown. ± marks the error that the study gave.
Protein AF-9 with DOT1L: Protein AF-9, with DOT1L (Homo sapiens, UniProt P42568)
UniProt P42568, sequence (whole entry, looked up): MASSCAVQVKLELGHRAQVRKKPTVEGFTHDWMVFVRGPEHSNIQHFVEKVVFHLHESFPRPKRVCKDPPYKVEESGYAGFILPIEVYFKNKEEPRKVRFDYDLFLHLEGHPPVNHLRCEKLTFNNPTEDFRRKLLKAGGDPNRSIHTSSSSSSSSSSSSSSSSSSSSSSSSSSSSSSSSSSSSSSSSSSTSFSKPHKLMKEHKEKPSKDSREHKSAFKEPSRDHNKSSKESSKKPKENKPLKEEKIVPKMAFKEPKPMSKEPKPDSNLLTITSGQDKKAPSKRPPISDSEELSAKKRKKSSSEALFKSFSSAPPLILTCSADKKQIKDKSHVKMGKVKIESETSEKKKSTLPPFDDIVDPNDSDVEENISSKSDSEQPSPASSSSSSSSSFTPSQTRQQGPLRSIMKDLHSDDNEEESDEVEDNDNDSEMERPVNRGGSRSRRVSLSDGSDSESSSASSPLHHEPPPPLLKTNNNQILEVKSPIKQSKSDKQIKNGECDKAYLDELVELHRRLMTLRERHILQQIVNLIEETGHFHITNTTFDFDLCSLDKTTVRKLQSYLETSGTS
IDE: Insulin-degrading enzyme (IDE, Homo sapiens, UniProt P14735)
BRD9: Bromodomain-containing protein 9 (BRD9, Homo sapiens, UniProt Q9H8M2)
UniProt Q01815, sequence (whole entry, looked up): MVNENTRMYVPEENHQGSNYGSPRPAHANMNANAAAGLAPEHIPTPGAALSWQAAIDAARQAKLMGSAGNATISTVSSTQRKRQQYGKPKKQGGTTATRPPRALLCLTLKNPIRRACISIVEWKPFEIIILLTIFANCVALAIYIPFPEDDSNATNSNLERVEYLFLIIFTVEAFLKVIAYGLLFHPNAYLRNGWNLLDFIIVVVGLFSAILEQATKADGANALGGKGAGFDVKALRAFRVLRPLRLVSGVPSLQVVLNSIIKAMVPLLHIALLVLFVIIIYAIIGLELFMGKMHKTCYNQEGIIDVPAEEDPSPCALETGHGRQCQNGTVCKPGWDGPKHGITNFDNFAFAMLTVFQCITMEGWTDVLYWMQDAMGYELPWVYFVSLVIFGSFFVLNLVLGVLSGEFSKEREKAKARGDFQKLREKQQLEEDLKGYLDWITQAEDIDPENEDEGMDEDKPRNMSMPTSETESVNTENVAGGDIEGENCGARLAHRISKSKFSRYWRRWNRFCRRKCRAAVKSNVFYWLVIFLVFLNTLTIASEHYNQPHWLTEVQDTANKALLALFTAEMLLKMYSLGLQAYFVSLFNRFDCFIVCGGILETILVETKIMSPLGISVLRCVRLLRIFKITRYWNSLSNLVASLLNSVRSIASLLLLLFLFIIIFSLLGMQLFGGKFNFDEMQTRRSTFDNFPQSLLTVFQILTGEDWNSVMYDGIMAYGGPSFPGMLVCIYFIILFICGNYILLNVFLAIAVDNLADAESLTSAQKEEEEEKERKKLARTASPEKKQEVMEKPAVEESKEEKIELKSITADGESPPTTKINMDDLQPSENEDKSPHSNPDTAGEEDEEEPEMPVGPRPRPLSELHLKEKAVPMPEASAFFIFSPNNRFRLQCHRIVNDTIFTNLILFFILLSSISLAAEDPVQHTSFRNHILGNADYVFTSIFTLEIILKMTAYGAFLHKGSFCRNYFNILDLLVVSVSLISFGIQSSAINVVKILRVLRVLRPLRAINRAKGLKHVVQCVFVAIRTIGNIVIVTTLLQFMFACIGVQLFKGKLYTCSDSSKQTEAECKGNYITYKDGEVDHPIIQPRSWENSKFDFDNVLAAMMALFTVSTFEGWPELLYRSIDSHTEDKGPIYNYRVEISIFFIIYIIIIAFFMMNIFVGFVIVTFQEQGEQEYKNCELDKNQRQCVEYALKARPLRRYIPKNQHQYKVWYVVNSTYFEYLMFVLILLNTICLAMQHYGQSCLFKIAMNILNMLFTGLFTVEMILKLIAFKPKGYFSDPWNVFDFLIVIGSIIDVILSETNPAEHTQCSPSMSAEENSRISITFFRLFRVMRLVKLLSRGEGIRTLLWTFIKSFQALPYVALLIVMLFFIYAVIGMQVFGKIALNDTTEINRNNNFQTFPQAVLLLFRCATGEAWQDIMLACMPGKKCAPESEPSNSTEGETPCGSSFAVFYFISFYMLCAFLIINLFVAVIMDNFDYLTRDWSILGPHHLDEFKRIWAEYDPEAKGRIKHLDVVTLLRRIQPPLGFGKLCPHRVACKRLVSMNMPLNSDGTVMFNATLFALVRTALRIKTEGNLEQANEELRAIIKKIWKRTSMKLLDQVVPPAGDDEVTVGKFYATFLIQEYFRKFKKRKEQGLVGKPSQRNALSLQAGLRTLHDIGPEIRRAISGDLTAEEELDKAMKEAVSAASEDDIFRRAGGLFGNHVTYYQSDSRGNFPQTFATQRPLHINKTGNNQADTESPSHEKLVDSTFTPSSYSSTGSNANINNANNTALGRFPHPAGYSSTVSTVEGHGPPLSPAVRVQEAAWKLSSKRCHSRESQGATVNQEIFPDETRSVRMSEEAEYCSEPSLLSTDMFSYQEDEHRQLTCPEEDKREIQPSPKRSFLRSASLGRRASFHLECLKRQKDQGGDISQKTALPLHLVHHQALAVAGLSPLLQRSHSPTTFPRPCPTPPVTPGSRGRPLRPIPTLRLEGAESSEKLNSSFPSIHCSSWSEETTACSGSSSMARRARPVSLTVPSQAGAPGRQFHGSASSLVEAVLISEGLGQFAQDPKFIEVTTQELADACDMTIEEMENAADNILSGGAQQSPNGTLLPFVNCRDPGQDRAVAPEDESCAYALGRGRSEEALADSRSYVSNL
UniProt Q9H8M2, sequence (whole entry, looked up): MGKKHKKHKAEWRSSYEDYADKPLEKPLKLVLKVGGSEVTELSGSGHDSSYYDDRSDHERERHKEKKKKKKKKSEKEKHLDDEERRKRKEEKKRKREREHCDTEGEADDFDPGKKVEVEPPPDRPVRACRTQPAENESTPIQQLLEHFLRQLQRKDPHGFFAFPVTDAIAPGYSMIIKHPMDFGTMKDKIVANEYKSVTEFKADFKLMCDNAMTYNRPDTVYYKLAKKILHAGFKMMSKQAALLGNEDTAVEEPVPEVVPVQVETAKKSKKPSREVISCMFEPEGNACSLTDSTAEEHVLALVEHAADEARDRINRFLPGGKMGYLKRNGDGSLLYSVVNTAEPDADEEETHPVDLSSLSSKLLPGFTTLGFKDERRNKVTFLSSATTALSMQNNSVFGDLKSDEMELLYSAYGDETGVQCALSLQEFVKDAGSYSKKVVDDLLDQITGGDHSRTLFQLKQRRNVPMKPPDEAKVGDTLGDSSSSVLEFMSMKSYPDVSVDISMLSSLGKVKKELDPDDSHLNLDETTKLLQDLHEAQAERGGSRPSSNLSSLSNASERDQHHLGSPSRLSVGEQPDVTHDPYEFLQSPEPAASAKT
UniProt Q93009, sequence (whole entry, looked up): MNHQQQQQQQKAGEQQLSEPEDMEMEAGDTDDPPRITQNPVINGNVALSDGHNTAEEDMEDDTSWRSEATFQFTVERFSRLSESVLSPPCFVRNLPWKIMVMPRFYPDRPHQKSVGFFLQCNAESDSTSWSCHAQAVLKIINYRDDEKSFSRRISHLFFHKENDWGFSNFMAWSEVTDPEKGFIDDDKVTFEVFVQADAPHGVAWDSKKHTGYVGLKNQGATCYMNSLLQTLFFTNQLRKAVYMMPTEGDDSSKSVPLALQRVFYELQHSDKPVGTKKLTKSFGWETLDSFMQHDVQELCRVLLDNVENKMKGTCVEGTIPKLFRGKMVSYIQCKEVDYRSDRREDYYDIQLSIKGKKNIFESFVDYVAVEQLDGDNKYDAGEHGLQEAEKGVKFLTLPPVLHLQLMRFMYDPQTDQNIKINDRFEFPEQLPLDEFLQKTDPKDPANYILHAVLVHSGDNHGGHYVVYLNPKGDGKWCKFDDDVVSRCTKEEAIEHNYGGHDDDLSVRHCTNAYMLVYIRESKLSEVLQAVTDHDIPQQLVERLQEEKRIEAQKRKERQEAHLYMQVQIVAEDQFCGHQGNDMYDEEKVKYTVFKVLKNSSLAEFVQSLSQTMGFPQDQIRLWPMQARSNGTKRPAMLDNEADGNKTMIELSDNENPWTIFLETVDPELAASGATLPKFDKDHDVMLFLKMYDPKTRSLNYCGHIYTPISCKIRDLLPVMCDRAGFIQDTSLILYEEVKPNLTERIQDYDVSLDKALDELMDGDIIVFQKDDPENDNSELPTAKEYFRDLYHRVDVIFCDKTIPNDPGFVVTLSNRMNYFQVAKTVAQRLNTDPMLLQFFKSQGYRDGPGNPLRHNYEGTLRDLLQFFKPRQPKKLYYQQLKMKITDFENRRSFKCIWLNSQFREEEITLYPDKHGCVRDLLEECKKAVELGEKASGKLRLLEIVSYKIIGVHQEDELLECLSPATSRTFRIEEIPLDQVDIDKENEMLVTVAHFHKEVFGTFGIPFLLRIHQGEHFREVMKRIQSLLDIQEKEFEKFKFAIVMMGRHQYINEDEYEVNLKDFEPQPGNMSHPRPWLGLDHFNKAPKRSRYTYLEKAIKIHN
UniProt P20618, sequence (whole entry, looked up): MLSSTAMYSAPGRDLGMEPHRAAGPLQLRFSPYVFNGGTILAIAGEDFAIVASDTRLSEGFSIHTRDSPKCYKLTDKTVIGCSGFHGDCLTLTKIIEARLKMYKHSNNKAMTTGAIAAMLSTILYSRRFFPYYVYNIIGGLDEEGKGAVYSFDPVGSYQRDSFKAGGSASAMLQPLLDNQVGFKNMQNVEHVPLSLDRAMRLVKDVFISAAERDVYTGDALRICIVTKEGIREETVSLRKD
UniProt P28074, sequence (whole entry, looked up): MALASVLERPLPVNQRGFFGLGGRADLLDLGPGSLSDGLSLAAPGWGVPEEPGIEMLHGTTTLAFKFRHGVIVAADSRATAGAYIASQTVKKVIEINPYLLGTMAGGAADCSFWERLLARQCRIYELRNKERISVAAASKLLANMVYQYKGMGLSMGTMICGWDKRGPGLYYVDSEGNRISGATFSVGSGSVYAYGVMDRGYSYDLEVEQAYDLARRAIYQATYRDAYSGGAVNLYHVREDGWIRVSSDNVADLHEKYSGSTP

| Structure (SMILES) | target or system | test | test system | setting | endpoint | result |
| --- | --- | --- | --- | --- | --- | --- |
| O=C(Nc1cccc2c(=O)cc(-c3nnn[nH]3)oc12)c1ccc(OCCCCc2ccccc2)cc1 | Volume-regulated anion channel subunit LRRC8C, part LRRC8A IL1 chimera (LRRC8C, Homo sapiens, UniProt Q8TDW0, E6A) | ion current, inhibitor, whole-cell patch clamp | HCT LRRC8-/- cells | 10 µM, +100 mV | inhibition | 91.5% and 97.4% and 96.8% and 94.2% |
| c1ccc(CCCCCOCCc2ccc3[nH]cnc3c2)cc1 | ATP2A2 (Sus scrofa, UniProt P11607) | ATPase activity | pig microsomes | 50 µM | inhibition | ~25% |
| CCS(=O)(=O)c1nc(S(=O)(=O)c2ccccc2Cl)c(N2CCN(C)C(=O)[C@H]2C)s1 | ADRA1B (Homo sapiens, UniProt P35368) |  |  | 10 µM | inhibition | 5.06% |
| CN(C(=O)n1cnc(-c2ccc[n+]([O-])c2)c1)C1CCCCC1 | Androgen receptor (AR, Homo sapiens, UniProt P10275) |  |  | 10 µM | inhibition | 17.3% |
| Cc1c(COc2ccc(CN3CCCCC3C(=O)NCCCCCCC(=O)N(C)CCCC34CCC(c5ccccc53)c3ccccc34)cc2Br)cccc1-c1ccccc1 (stereo not shown) | CD274 (Homo sapiens, UniProt Q9NZQ7) | binding, inhibitor, HTRF |  | 1 µM | inhibition | 27.1 ± 2.4% |
| Cc1cccc(-c2nc(-c3ccc(C#N)cc3)[nH]c2-c2ccncc2)c1 | CSNK1D (Homo sapiens, UniProt P48730) | kinase activity |  | 1 µM | inhibition | 11% |
| CC(C)(C)OC(=O)Nc1ccc(-c2cc(C(=O)NCCCCCCC(=O)NO)no2)cc1 | HBL-1 |  |  | 0.5 µM, 120 h | viability | 0.19% |
| CC(C)(C)NC(=O)C[C@H](NC(=O)C(=O)c1c[nH]c2ccccc12)C(=O)NCc1cccc(B(O)O)c1 | Proteasome component C5/PSMB5 (Homo sapiens, UniProt P20618+P28074) | β5 proteasome activity, inhibitor | HepG2 | concentration not given | inhibition | inhibited |
| FC(F)(F)c1cccc(Nc2ccc3ncc(OCC4CCNCC4)nc3c2)c1 | Protein AF-9 with DOT1L | DOT1L binding, AlphaLISA |  | 10 µM | inhibition | 19 to 40% |
| O=C(C[C@@H](C(F)F)n1ccc(F)n1)N1CCC(O)(Cn2cnc3c(cnn3-c3ccc(F)cc3)c2=O)CC1 | USP7 (Homo sapiens, UniProt Q93009) | enzyme activity, inhibitor |  | 0.5 µM | inhibition | 95.2% and 101% |
| Nc1nc2c(ncn2[C@@H]2O[C@H](COP(=O)(O)OP(=O)(O)OP(=O)(O)O)[C@@H](O)[C@H]2O)c(=O)[nH]1 | TGM2 (Homo sapiens, UniProt P21980) | enzyme activity, inhibitor, continuous fluorescence |  | 50 µM, 6 µg/mL enzyme, 10 mM Ca2+ | inhibition | ≤ 25% |
| Cc1ccccc1-c1ccc([C@@H]2[C@H]3CN(C(=O)c4cccnc4)CC(=O)N3[C@H]2CO)cc1 | IDE | enzyme activity, inhibitor, fluorogenic kinetic |  | together with: Mca-RPPGFSAFK(Dnp)-OH substrate | EC50 | 2.6 µM |
| CCc1oc2ccccc2c1C(=O)c1cc(Br)c(O)c(Br)c1 | SLC22A12 (Homo sapiens, UniProt Q96S37, Y152F) | uric acid uptake | HEK293T transfected with SLC22A12 Y152F | 0.5 µM, 10 min, 37 °C, mean, together with: [14C]urate 200 µM | inhibition | 86.4% |
| CC[C@@H]1[C@H](F)C(=O)N[C@@H]1COc1nccc2cc(C(N)=O)c(OC)cc12 | AXL (Homo sapiens, UniProt P30530) | ATP-site probe binding, inhibitor, ActivX ATP probe profiling | THP-1 cell lysate | 0.2 mM, activation loop site | inhibition | 7.8% |
| O=C(Nc1ccc(OCc2ccccc2)cc1)Nc1ccc2ncc(OCC3CCNCC3)nc2c1 | Protein AF-9 with DOT1L | DOT1L binding, AlphaLISA |  | 10 µM | inhibition | 42% |
| Cc1ccc(C(=O)Nc2ccc3ccccc3c2)o1 | Cacna1c (Mus musculus, UniProt Q01815) | ion current, inhibitor, whole-cell patch clamp |  | 10 µM | inhibition | 6.9% and 4.3% and 4.7% and 17.1% and 3.9% |
| FC(F)(F)c1ccc(Nc2ccc3ncc(OCC4CCNCC4)nc3c2)cc1 | Protein AF-9 with DOT1L | DOT1L binding, AlphaLISA |  | 10 µM | inhibition | 19 to 40% |
| COc1cc(OC)cc(-c2cc(C(C)=O)n3ccccc23)c1 | BRD9 | binding, inhibitor, AlphaScreen |  | 1 µM | inhibition | 93.2% |
| Nc1ncn([C@H]2C[C@H](O)[C@@H](CO)O2)c(=O)n1 | HBL-1 |  |  | 0.5 µM, 120 h | viability | 37.5% |
| COc1cc(-c2cc(C(C)=O)n3ccccc23)cc(OC)c1Cn1ccnc1 | BRD9 | AlphaScreen |  | 1 µM | inhibition | 94.7% |
| OC[C@H]1[C@@H](c2ccc(C#Cc3ccccc3)cc2)[C@@H]2CN(Cc3cncnc3)CCCCN12 | IDE | enzyme activity, inhibitor, fluorogenic kinetic |  | together with: Mca-RPPGFSAFK(Dnp)-OH substrate | EC50 | 4.3 µM |
| O=C(NC1CCC1)[C@H](Cc1c[nH]c2ccccc12)NC(=O)[C@H](CCCCNC(=S)NCCc1nnn[nH]1)NS(=O)(=O)c1cccc(F)c1 | SIRT3 (Homo sapiens, UniProt Q9NTG7) | deacylase activity |  | 10 µM, together with: NAD+ 500 µM | inhibition | < 0% |

For quick reference, copied from above:
| Structure (SMILES) | target or system | test | test system | setting | endpoint | result |
| --- | --- | --- | --- | --- | --- | --- |
| OC[C@H]1[C@@H](c2ccc(C#Cc3ccccc3)cc2)[C@@H]2CN(Cc3cncnc3)CCCCN12 | IDE | enzyme activity, inhibitor, fluorogenic kinetic |  | together with: Mca-RPPGFSAFK(Dnp)-OH substrate | EC50 | 4.3 µM |
| O=C(NC1CCC1)[C@H](Cc1c[nH]c2ccccc12)NC(=O)[C@H](CCCCNC(=S)NCCc1nnn[nH]1)NS(=O)(=O)c1cccc(F)c1 | SIRT3 (Homo sapiens, UniProt Q9NTG7) | deacylase activity |  | 10 µM, together with: NAD+ 500 µM | inhibition | < 0% |
